Measurements pooled from the literature.
Numbers after ± are the reported error.

Under “log2 fold change”, `Cn1ncc2cc(-c3cncc(Cl)c3N3CCC4(CCNC4=O)CC3)ccc21` is recorded as -1.01 (LS174T; gene expression, microarray, measured: EXD3 mRNA; concentration not given, 4 h; reference: untreated cells).
Under “log2 fold change”, `Cc1ncsc1-c1ccc(C(C)NC(=O)C2CC(O)CN2C(=O)C(NC(=O)CCCCCCCCCCN2CCCC(Nc3ncc(Cl)c(Nc4ccccc4S(=O)(=O)C(C)C)n3)C2)C(C)(C)C)cc1` (centres unmarked) is recorded as -1.22 (22Rv1; RNA-seq, measured: NPIPB3 mRNA; concentration not given; reference: DMSO).
For `CN1CCCNC(=O)c2cccc(c2)C(=O)NCCCN(C)CCCNc2cccc3c2C(=O)c2cccc(c2C3=O)NCCC1`, “log2 fold change” read -0.717 (SAS; RNA-Seq, measured: POLG mRNA; 1 µM, 6 h; reference: untreated cells).
`O=C(NC1CCOCC1)c1ccc([C@H]2[C@@H](F)[C@@H](F)C[C@@H](F)[C@H]2F)cc1` has a hepatic clearance of 6.1 mL/min/kg (liver microsome stability; rat liver microsomes; 1 µM).
`CNS(=O)(=O)Nc1nccc(Cc2c(C)c3ccc(Oc4ncccc4F)cc3oc2=O)c1F` gave an IC50 of 0.322 µM (AM-38; cell viability; 7 days).
`COC1CCN(C(=O)/C=C/c2nn(Cc3cccc(C(F)(F)F)c3)c3nc(NC(C)(C)C)ncc23)CC1` has an EC50 of 12.7 µM (FLO-1; cell growth or viability, resazurin; 5 days).
Under protein level, `O=S(=O)(N[C@H]1CCO[C@@H](C2c3ccc(F)cc3CCc3cc(F)ccc32)C1)c1ccc(OC(F)(F)F)cc1` is recorded as “decreased” (D425; immunoblot, measured: CIP2A; concentration not given).
The inhibition of `CC12CCCC(NS(=O)(=O)c3ccc(C#N)cc3)(C1)C1CC(C)(C)C1CC2` (centres unmarked) is reported as < 50% (HT-29; cell growth or viability, CCK-8; 10 µM).
`CCC(=CCc1c(O)cc2c(c1O)C(=O)CC(c1ccc(OC)cc1O)O2)CC` (centres unmarked) has an inhibition of 96.1% (HeLa; cell growth or viability, MTT; 50 µM, 48 h).
Under “mean growth percent”, `CC(=O)Oc1ccccc1C(=O)[Se]CC(=O)Nc1cccc(C(F)(F)F)c1` is recorded as 17.8% (NCI60 leukemia subpanel; cell growth; 10 µM, 48 h, one-dose).
With `CC[n+]1cccc2cc(/C=N/NC(=O)c3cccc(C(=O)N/N=C/c4ccc5c(ccc[n+]5CC)c4)c3)ccc21` the ΔTm was 6.5 ± 0.3 °C (22CTA telomeric G4-DNA antiparallel; FRET melting; 1 µM, K10 buffer, DNA 0.2 µM).
The cell death of `CSC(=S)N/N=C(\C)c1ccc(Nc2nnc(-c3ccc(Cl)cc3)c3ccccc23)cc1` is reported as 92.1% (HepG2; cell growth or viability, MTT; 5 µM).
`CCC(=CCc1c(O)cc2c(c1O)C(=O)CC(c1ccccc1O)O2)CC` (centres unmarked) has an inhibition of 1.51% (HeLa; cell growth or viability, MTT; 0.938 µM, 48 h).
For `CCc1ccc2oc(=O)cc(Cn3ccnc3)c2c1`, “calcium mobilisation signal” read 13.5 ± 2.58 (COS-7 (untransfected); 500 µM, unit not given; reference: 3 µM ionomycin).
`CN1CC[C@@H](COc2cnc(C#N)cc2-c2ccn3nc(NC(=O)C4CC4)cc3c2)C1`: “number of upregulated genes” 75 genes (human PBMC, CD4 T cells; single-cell RNA-seq; 1 µM, together with: LPS; reference: LPS alone).
For `O=C(COCC(F)F)Nc1ccc([C@H]2[C@@H](F)[C@@H](F)C[C@@H](F)[C@H]2F)cc1`, the hepatic clearance was 17 mL/min/kg (liver microsome stability; rat liver microsomes; 1 µM).
For `O=C(N1CCCC1)n1cc(-c2ccc(-c3ccccc3)cc2)nn1`, the SILAC ratio was 1 (mouse T cells; N-terminal labelling proteomics, measured: TPI1 N-terminal peptides; 0.001 µM, 6 h; reference: DMSO).
The inhibition of `C[C@@H]1CC[C@@H]([C@](O)(CNCc2cccc(F)c2)COCc2ccccc2)[C@H](OCc2ccccc2)C1` is reported as 95% (A2780; cell growth or viability, MTT; 10 µM, 72 h).
The cell lysis of `CC(=O)N1C[C@H](O)C[C@H]1C(=O)N[C@H](C(=O)N[C@@H](CO)C(=O)N[C@@H](CC(=O)O)C(=O)COC(=O)c1c(C)cccc1C)C(C)C` is reported as 56.3% (THP-1 cells, LPS-primed; pyroptosis, LDH release; 25 µM, LPS 1 µg/mL, 4 h, together with: nigericin 5 µM, 2 h).
`CC12CCCC(NS(=O)(=O)c3ccccc3)(C1)C1CC(C)(C)C1CC2` (centres unmarked) gave an inhibition of < 50% (HT-29; cell growth or viability, CCK-8; 10 µM).

Excerpt of the above:
The cell death of `CSC(=S)N/N=C(\C)c1ccc(Nc2nnc(-c3ccc(Cl)cc3)c3ccccc23)cc1` is reported as 92.1% (HepG2; cell growth or viability, MTT; 5 µM).
`CCC(=CCc1c(O)cc2c(c1O)C(=O)CC(c1ccccc1O)O2)CC` (centres unmarked) has an inhibition of 1.51% (HeLa; cell growth or viability, MTT; 0.938 µM, 48 h).
For `CCc1ccc2oc(=O)cc(Cn3ccnc3)c2c1`, “calcium mobilisation signal” read 13.5 ± 2.58 (COS-7 (untransfected); 500 µM, unit not given; reference: 3 µM ionomycin).
